Results gathered from unrelated publications.
RPS6KA4 N-terminal kinase domain: Ribosomal protein S6 kinase alpha-4, N-terminal kinase domain (RPS6KA4, Homo sapiens, UniProt O75676)
RPS6KA4 C-terminal kinase domain: Ribosomal protein S6 kinase alpha-4, C-terminal kinase domain (RPS6KA4, Homo sapiens, UniProt O75676)

Structure (SMILES) = CC(C)=CC1OC(C)(C)C2C=C3C(=O)C(Cl)=CC(O)C3C3C(O)C4OC4C(=O)C132 (stereo not drawn); target = RPS6KA4 N-terminal kinase domain; action = binder; technique = KINOMEscan competition binding; tested at = 10 µM; relative to = DMSO control; remaining binding = 97%
Structure (SMILES) = COc1cc(Nc2nccc(-c3cnn4nc(OC)ccc34)n2)cc(C(F)(F)F)c1; target = RPS6KA4 C-terminal kinase domain; read-out = binding; technique = competition with immobilised ligand; tested at = 1 µM; remaining binding = 87%
Structure (SMILES) = CCN1CCN(Cc2ccc(C(=O)Nc3ccc(C)c(NCc4cnc5[nH]ccc5c4OC)c3)cc2C(F)(F)F)CC1; target = RPS6KA4 N-terminal kinase domain; read-out = binding; technique = competition with immobilised ligand; tested at = 1 µM; remaining binding = 70%
Structure (SMILES) = CNC1C[S+]2CC[S+]3CC[S+](C1)[Ru-4]321([N]=C=S)[n]2c3ccc(OC)cc3c3c4c(c5cc(F)c[n+]1c5c32)C(=O)NC4=O (stereo not drawn); target = RPS6KA4 N-terminal kinase domain; technique = KinomeScan; tested at = 0.1 µM; relative to = untreated; remaining binding = 77%
Structure (SMILES) = Cc1cnc2nc1Nc1cccc(c1)COC/C=C/COCc1cc(ccc1OCCN1CCOCC1)N2; target = RPS6KA4 C-terminal kinase domain; read-out = binding; technique = competition with immobilised ligand; tested at = 0.1 µM; remaining binding = 90%
Structure (SMILES) = COc1cc(Nc2nc(C)cc(-c3cnn4nc(OC)ccc34)n2)cc(C(F)(F)F)c1; target = RPS6KA4 C-terminal kinase domain; read-out = binding; technique = competition with immobilised ligand; tested at = 1 µM; remaining binding = 84%
Structure (SMILES) = Cc1c[nH]c2nccc(-c3ccc(C(=O)N[C@@H]4c5c(F)cc(C(F)F)cc5C[C@@H]4O)cn3)c12; target = RPS6KA4 C-terminal kinase domain; read-out = binding; technique = competition with immobilised ligand; tested at = 3 µM; remaining binding = 61%
Structure (SMILES) = Cc1ccc(-c2c(/C=C(\C#N)C(=O)NC(C)C)n(CCCO)c3ncnc(N)c23)cc1; target = RPS6KA4 N-terminal kinase domain; read-out = binding; technique = competition with immobilised ligand; tested at = 1 µM; remaining binding = 100%
Structure (SMILES) = Nc1ncc2c(n1)-c1c([nH]c3ccc(C4=CCOCC4)cc13)CCC2; target = RPS6KA4 C-terminal kinase domain; read-out = binding; technique = competition with immobilised ligand; tested at = 1 µM; remaining binding = 87%
Structure (SMILES) = COc1c(Cl)cccc1Nc1c(-c2ccncc2C#C[C@@]2(C)CCCN2C(=O)/C=C/CN(C)C)[nH]c2c1C(=O)NCC2; target = RPS6KA4 N-terminal kinase domain; read-out = binding; technique = competition with immobilised ligand; tested at = 3 µM; remaining binding = 100%
Structure (SMILES) = C=CC(=O)N1CCCC(n2c(=O)c3ncccc3n(Cc3ccc(Oc4ccccc4)cc3)c2=O)C1 (stereo not drawn); target = RPS6KA4 N-terminal kinase domain; read-out = binding; technique = competition with immobilised ligand; tested at = 1 µM; remaining binding = 100%
Structure (SMILES) = CNC(=O)C1CCN(c2cc(C)c(F)cc2NC(=O)c2ccc(-c3cc(O)ccc3C)c(C)c2)CC1; target = RPS6KA4 C-terminal kinase domain; read-out = binding; technique = competition with immobilised ligand; tested at = 1 µM; remaining binding = 72%

Excerpt of the above:
Structure (SMILES) = Cc1c[nH]c2nccc(-c3ccc(C(=O)N[C@@H]4c5c(F)cc(C(F)F)cc5C[C@@H]4O)cn3)c12; target = RPS6KA4 C-terminal kinase domain; read-out = binding; technique = competition with immobilised ligand; tested at = 3 µM; remaining binding = 61%
Structure (SMILES) = Cc1ccc(-c2c(/C=C(\C#N)C(=O)NC(C)C)n(CCCO)c3ncnc(N)c23)cc1; target = RPS6KA4 N-terminal kinase domain; read-out = binding; technique = competition with immobilised ligand; tested at = 1 µM; remaining binding = 100%
